Literature values that unrelated publications cite.
Lines come from different studies, so protocols differ. ± marks the error that the study gave.
UniProt Q01827, sequence (whole entry, looked up): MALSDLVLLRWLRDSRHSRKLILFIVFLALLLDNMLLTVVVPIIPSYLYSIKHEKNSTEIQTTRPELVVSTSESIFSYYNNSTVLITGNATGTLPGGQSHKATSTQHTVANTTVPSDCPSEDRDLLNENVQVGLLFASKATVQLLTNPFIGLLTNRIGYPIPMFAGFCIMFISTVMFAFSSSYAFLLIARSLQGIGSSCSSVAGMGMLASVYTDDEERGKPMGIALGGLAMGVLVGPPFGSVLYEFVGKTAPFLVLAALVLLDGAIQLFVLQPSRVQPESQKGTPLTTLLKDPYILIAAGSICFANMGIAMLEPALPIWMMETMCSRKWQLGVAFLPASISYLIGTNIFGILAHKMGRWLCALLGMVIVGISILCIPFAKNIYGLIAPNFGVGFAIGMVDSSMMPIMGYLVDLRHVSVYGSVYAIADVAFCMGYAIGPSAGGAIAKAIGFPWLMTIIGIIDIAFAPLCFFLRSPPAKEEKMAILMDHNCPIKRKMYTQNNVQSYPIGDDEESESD
UniProt P35462, sequence (whole entry, looked up): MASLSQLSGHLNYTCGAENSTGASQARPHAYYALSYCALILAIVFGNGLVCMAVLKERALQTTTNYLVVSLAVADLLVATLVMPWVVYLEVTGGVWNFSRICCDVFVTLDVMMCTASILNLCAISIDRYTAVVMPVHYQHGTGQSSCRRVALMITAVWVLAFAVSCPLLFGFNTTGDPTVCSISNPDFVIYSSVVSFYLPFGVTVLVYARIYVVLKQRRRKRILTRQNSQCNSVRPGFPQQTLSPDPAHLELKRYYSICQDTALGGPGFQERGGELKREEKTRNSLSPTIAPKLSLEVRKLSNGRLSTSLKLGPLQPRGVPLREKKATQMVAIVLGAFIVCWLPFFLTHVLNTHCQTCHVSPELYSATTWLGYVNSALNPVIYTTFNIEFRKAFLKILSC
UniProt Q9R0C9, sequence (whole entry, looked up): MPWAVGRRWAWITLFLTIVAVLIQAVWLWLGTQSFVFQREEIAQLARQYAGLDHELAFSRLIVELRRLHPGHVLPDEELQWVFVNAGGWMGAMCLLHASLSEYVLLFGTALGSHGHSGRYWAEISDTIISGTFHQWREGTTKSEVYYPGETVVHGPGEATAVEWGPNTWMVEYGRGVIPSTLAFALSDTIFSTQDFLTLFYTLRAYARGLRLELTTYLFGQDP

The Tmax of CNC(C)Cc1ccc(O)c(OC)c1 (centres unmarked) is reported as 2.7 to 5 h (healthy human subjects; oral, dose not given).
Nc1ccc(C(=O)O)c(O)c1 gave an unbound fraction of 54.7 ± 1.4% (caseum; 5 µM, 4 h, 37 °C).
Under “Km or Ki”, O=[P@]1(S)OC[C@H]2O[C@@H](n3cnc4cc(Cl)c(Cl)cc43)[C@H](O)[C@@H]2O1 is recorded as 55.8 µM (PDE1C; cyclic nucleotide hydrolysis, substrate or inhibitor, isothermal titration calorimetry).
CN[C@]1(c2ccccc2Cl)CCCCC1=O has an AUC(0-inf) of 0.076 µg·h/mL (human, placebo phase; intravenous, dose not given).
With COc1cccc(C2(O)CCCCC2CN(C)C)c1 (centres unmarked) the Cmax was 1.9 µM (plasma; concentration not given).
For C[C@]1(COc2ccc(N3CCC(Oc4ccc(OC(F)(F)F)cc4)CC3)cc2)Cn2cc([N+](=O)[O-])nc2O1, the unbound fraction was 0.04 ± 0.02% (caseum; 5 µM, 4 h, 37 °C).
COc1ccc(CN(C(=O)[C@@H](N)Cc2c(C)cc(C(N)=O)cc2C)[C@@H](C)c2nc(-c3ccccc3)c[nH]2)cc1C(=O)O gave a total clearance of 171 mL/min (dog; intravenous, 2 mg/kg, body weight 8.6 kg).
CC(C)/N=c1\cc2n(-c3ccc(Cl)cc3)c3ccccc3nc-2cc1Nc1ccc(Cl)cc1 has an unbound fraction of < 0.01% (caseum; 5 µM, 4 h, 37 °C).
N[C@@]1(c2ccccc2Cl)CCC[C@@H](O)C1=O: activity “inactive” (opioid receptors; binding, competitive binding screen; concentration not given).
With CNC1(c2ccccc2Cl)CCCCC1=O (racemic) the oral bioavailability was 17 to 24% (human; oral).
CN1C/C(=C\c2ccc(Cl)cc2Cl)C/C(=C/c2ccc(Cl)cc2Cl)C1 has a Ki of 0.32 µM (Slc18a2 (Rattus norvegicus, UniProt Q01827); substrate site binding).
Under “Km or Ki”, Nc1ncnc2c1nc(Br)n2C1OC2COP(O)(=S)OC2C1O (centres unmarked) is recorded as 28.7 µM (PDE4D; cyclic nucleotide hydrolysis, substrate or inhibitor, isothermal titration calorimetry).
CCC1(c2ccccc2)C(=O)NC(=O)NC1=O: “therapeutic plasma concentration” 15 to 40 µg/mL (human, plasma; total concentration, therapeutic range).
The Ki of C=CCN(CC=C)CCc1c[nH]c2ccccc12 is reported as 0.672 µM (DRD3 (Homo sapiens, UniProt P35462); binding; cloned human receptor; together with: [3H]N-methylspiperone).
For COc1ccc2c3c1O[C@H]1C(=O)CC[C@@]4(O)[C@@H](C2)NCC[C@]314, Cmax read “increased” (patients with hepatic or renal impairment, plasma; dose not given).
With COC(=O)Nc1nc2cc(C(=O)c3ccc(F)cc3)ccc2[nH]1 the tissue radioactivity was ≤ 3.1 µg/g (Wistar rat, liver, lung, kidney, muscle, fat; oral, 10 mg/kg).
COc1nc2ccc(Br)cc2cc1[C@@H](c1ccccc1)[C@@](O)(CCN(C)C)c1cccc2ccccc12 has a fraction unbound of < 0.01% (THP-1 foamy macrophage matrix; 5 µM, 4 h, 37 °C).
C=CCN(CC=C)CCc1c[nH]c2ccc(Br)cc12 gave a Ki of 0.101 µM (Sigmar1 (Rattus norvegicus, UniProt Q9R0C9)).
For COc1cccc(C2(O)CCCCC2CN(C)C)c1 (centres unmarked), the drug liking-disliking was 24 (human drug abusers; oral, 400 mg, peak, 100-point scale, unit not given; baseline: placebo).
CO[C@H]1/C=C/O[C@@]2(C)Oc3c(C)c(O)c4c(O)c(c(/C=N/N5CCN(C)CC5)c(O)c4c3C2=O)NC(=O)/C(C)=C\C=C\[C@H](C)[C@H](O)[C@@H](C)[C@@H](O)[C@@H](C)[C@H](OC(C)=O)[C@@H]1C gave an unbound fraction of 5.13 ± 0.2% (caseum; 5 µM, 4 h, 37 °C).
With CCCN(CCC)C(=O)Cc1c(-c2ccc(Cl)cc2)nc2ccc(Cl)cn12 the Cmax was 0.3 µM (plasma; concentration not given).
The Tmax of CC(N)Cc1ccc2c(c1)OCO2 (centres unmarked) is reported as 4.6 to 5.9 h (healthy human subjects; oral, dose not given).
NC(=O)c1ccc2c(c1O)[C@]13CCN(CC4CC4)[C@H](C2)[C@]1(O)CCC(=O)C3: “decrease in Cmax” 44% (healthy subjects; dose not given, together with: rifampin 600 mg/day).
The urinary excretion of CNCC1CCCCC1(O)c1cccc(OC)c1 (centres unmarked) is reported as > 10% (human, urine; oral, dose not given, after tramadol dosing; baseline: dose).
C[C@]12CCC(=O)CC1=CC[C@@H]1[C@@H]2CC[C@]2(C)C(=O)CC[C@@H]12 has a Km of 55.2 ± 2 µM (ketosteroid isomerase Y30F; substrate; pH 7.0, 3.3 % methanol).
With CC[C@@H](CO)NCCN[C@@H](CC)CO the unbound fraction was 35.2 ± 4.4% (caseum; 5 µM, 4 h, 37 °C).
For Cc1ncc2n1-c1ccc(Cl)cc1C(c1ccccc1F)=NC2, the AUC(0-inf) was 67.1 nM·h (human; oral, 2.5 mg, single agent, geometric mean).
With COc1ccc2c3c1O[C@H]1C(=O)CC[C@@]4(O)[C@@H](C2)N(C)CC[C@]314 the drug liking-disliking was 21 (human drug abusers; oral, 15 mg, peak, 100-point scale, unit not given; baseline: placebo).
NNC(=O)c1ccncc1 has a fraction unbound of > 99.9% (THP-1 foamy macrophage matrix; 5 µM, 4 h, 37 °C).
